Measurements gathered from unrelated publications.
A part holds a random share of what one study measured.

Series 1 — technique: aptamer microarray, sandwich; molecule type: DNA with 2'F-ANA; matrix: in vitro; tested at: 200 nM; together with: Cy3 exosite-II aptamer, 400 nM; direction: higher = stronger binding; quantity: mean fluorescence intensity; sequence: GGTTGGTGTGGTTGG
Target: Prothrombin, mature alpha-thrombin (F2, Homo sapiens, UniProt P00734)
Notes: whole 15-mer aptamer, many near background
2'F-ANA at 2 4 5 6: 69 a.u.
2'F-ANA at 1 3 4 5 7 8 9 10 11 13: 59.6 a.u.
2'F-ANA at 2 4 7 10 11 12 14: 63.5 a.u.
2'F-ANA at 1 3 6 10 13: 72.5 a.u.
2'F-ANA at 4 5 6 7 10 13: 79.6 a.u.
2'F-ANA at 3 4 5 9 10: 52.8 a.u.
2'F-ANA at 1 2 3 6 7 9 10 11 14 15: 54.2 a.u.
2'F-ANA at 7 10 11 12 13 14: 110 a.u.
2'F-ANA at 1 4 5 7 8 9 11 12 14: 44.8 a.u.
2'F-ANA at 2 4 5 6 10 11 15: 56.2 a.u.
2'F-ANA at 2 4 6 12 14 15: 119 a.u.
2'F-ANA at 3 7 8 9 10 12 13 15: 748 a.u.
2'F-ANA at 2 13: 376 a.u.
2'F-ANA at 4 5 6 7 9 10 11 14 15: 61.7 a.u.
2'F-ANA at 7 11 12 14: 259 a.u.
2'F-ANA at 2 5 8 13 14 15: 46.3 a.u.
2'F-ANA at 1 5 6 7 10 11 13 14: 49.5 a.u.
2'F-ANA at 5 6 7 9 10 11: 48.1 a.u.
2'F-ANA at 3 5 6 8 9 14: 62.4 a.u.
2'F-ANA at 3 4 6 8 11 12 13 14 15: 243 a.u.
2'F-ANA at 3 4 7 8 10 12 15: 341 a.u.
2'F-ANA at 1 4 6 7 8 10 11 12 13: 52.2 a.u.
2'F-ANA at 2 4 9 12 13 14 15: 96.4 a.u.
2'F-ANA at 1 3 7 10 11 12 14: 59.3 a.u.

Series 2 — technique: universal PBM; molecule type: double-stranded DNA, one strand shown; matrix: in vitro; tested at: 600 nM; direction: higher = stronger binding; quantity: E-score
Target: Sal-like protein 4, full length isoform A (SALL4, Homo sapiens, UniProt Q9UJQ4, residues 1-1053)
Chain of UniProt Q9UJQ4 (whole entry, looked up): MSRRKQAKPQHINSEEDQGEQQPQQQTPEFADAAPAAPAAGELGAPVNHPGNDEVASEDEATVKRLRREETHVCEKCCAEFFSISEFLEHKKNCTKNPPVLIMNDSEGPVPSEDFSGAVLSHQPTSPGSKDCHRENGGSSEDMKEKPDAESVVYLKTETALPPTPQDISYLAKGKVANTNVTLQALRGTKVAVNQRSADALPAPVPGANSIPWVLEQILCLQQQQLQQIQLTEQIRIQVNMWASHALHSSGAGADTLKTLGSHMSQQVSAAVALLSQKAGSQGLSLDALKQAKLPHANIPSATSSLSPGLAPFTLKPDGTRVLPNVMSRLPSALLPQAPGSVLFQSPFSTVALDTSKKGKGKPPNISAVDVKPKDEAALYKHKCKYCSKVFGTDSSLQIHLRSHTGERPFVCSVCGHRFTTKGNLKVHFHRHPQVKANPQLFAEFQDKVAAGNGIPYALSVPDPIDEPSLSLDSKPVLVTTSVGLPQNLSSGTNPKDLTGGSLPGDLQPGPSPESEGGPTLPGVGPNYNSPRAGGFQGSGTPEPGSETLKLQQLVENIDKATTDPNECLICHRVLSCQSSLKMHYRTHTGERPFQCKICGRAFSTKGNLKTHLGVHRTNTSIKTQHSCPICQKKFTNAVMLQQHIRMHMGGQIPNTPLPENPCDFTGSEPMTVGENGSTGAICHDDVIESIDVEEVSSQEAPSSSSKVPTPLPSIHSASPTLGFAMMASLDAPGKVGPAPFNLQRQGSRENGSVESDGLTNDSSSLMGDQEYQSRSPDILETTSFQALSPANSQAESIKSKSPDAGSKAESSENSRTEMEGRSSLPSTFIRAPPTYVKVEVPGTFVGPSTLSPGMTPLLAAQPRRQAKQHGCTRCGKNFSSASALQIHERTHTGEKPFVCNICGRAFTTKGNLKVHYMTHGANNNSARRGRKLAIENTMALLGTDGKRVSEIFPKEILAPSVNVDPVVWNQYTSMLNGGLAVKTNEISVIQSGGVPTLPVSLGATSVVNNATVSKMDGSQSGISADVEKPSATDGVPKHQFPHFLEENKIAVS
Notes: 8-mer, flanks averaged, mean of replicates
CAAAAGCA: -0.0067
CTCAGTGA: 0.0172
CAAATGCG: -0.00468
GCGAAAAC: -0.113
GTTACTGA: 0.174
GACAGGTA: 0.0106
CCAGACAA: -0.0677
ATCGGCTG: -0.13
AACTTTAC: 0.152
GTAATGGA: 0.164
ACGACCTC: -0.0603
ACAATAGG: 0.16
CAGAGCCA: -0.125
AGTCTACA: 0.036
GTGTCTGA: -0.00762
CTTGTTCA: 0.0526
GATGGGAA: -0.0749
CTTTCGTC: 0.0416
GTGAACTA: 0.166
AGAGCCAC: -0.0929
TAAAATCA: 0.249

Series 3 — technique: RNA Bind-n-Seq; molecule type: RNA; matrix: in vitro; tested at: not given; reference: input RNA pool; direction: higher = stronger binding; quantity: bound/input enrichment
Target: RING finger protein unkempt homolog, zinc fingers 1-6, GST-SBP tag (UNK, Homo sapiens, UniProt Q9C0B0, residues 30-357)
Notes: RNA with constant flanks, human-mouse chimeric sites, ends assumed
Residues (chain): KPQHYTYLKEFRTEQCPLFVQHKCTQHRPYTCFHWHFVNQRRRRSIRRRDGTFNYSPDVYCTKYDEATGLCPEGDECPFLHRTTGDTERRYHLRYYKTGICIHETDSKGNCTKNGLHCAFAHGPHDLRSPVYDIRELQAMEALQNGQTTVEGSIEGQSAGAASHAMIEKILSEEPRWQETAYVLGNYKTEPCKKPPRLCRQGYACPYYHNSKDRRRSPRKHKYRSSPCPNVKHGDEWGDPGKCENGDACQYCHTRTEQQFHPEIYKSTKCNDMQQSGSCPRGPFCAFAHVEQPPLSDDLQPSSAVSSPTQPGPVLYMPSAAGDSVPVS
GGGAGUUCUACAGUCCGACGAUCGUGUCCUGCUUUCAACUUAAAUCACUGAGGCAUCUCUACUGUUCUGUGAGCAUCAGGACUGUAGCGCUGUGUCACCACAUGAGAGUUGUUAAGCAGCCUUUCUGUGGAGAGUGAGAAUGACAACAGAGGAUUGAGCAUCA: 0.053 ratio
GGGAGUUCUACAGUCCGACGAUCUAACCACAUCAAGAUGGUUGGGAAGCUGAAGCAGAACUUACUCUUGGCGUGUCUGGUGAUUAGUUCUGUGACUGUGUUUUACCUGGGCCAGCAUGCCAUGGAAUGCCAUCACCGAAUAGACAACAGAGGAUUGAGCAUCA: 0.162 ratio
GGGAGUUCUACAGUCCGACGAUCGUACUGCAGCAGCAGGGAAAACUGCAGGAAGCUCUGAUGCACUAUAAGGAGGCUAUUCGAAUCAGUCCUACCUUUGCUGAUGCCUACUCCAAUAUGGGAAACACUCUAAAGGAGAUGCAGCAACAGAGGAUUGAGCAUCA: 0.117 ratio
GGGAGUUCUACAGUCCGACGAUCAAAGAGAAACUAAAGCAACUAAUAGAGGAAGAGGAUUGCAAAGAGAAUUUCAUAGAGAAACUAGGAUUUAUUAGCAAACAUGAGUUAUAUUCCAGAGCGUCUCAGAAACCCCAGCCAAACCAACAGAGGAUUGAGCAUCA: 7.33 ratio
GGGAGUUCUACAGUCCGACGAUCGCUCCUCCCCGCUCUGCAGCCUGGGGACACUGGGCUGGGACCAGAAUCCAGCUUUCUUUUAAUAGUGUCAGUGUAACUGUAUCCCGUUUUUUUCUUUUUUUUUUAAAUAGUGUAUUUUUUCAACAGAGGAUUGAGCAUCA: 22.9 ratio
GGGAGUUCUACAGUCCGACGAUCAAAGAGAAACUAAAGCAACUAAUAGAGAAGAGGAUUGGGCAAAGAGAUUUCAUAGAGGAAACUAGGAUUAUUAGCAAACAUGAGUUAUAUUCCAGAGCGUCUCAGAAACCCCAGCCAAACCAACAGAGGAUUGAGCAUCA: 3 ratio
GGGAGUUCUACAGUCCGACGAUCUAAAUCCUGUGCCAGCACUUCGCUCAUAAAGUUUUAAAUUCAAGAAAAAUAGUGUUUGUUUCCUGAUUAUUGUAUCCAAUACUUUGCCUAGUAUGUAACUCACUCUUACUGAUAAUAAAACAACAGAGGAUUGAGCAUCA: 2.52 ratio
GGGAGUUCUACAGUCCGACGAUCCACAGAGCAGCACCUACCCCCUCCUCCUUUCCACACCUGCAAACCCUUUUACUUGGGCUGAAUAUUUAGUGUAAUUAACAUCGCAGCUUGAGGGCUCCUGUGGCAAAUUCCCGGAUUAAACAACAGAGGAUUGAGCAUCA: 1.47 ratio

Series 4 — technique: protein binding microarray; molecule type: double-stranded DNA, one strand shown; matrix: in vitro; tested at: not given; reference: not given; direction: higher = stronger binding; quantity: E-score
Target: Histone acetyltransferase KAT6A, winged helix 2, GST fusion (KAT6A, Homo sapiens, UniProt Q92794, residues 85-181)
Notes: 8-mer, flanks averaged, mean of 2 arrays, mostly near background
Construct (chain): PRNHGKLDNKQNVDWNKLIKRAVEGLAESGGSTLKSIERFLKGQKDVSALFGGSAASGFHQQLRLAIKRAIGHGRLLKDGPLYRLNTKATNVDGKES
ACGTCGAT: -0.0818
CATCCGGC: 0.187
ACACGTTA: -0.195
TCGCCCGA: 0.0836
CTTCGCAA: 0.00606
CTCGCGAA: 0.015
TATCTTCA: -0.0341
AGGATAGA: -0.00511
AGAAGTTC: -0.226
ATGTACAC: -0.0938
TAACCCTA: -0.163
CAGTTTTA: 0.0746
GTGATAAA: 0.148
AAACCTGA: -0.114
AATGTCGC: -0.113
AGTAGCGA: -0.00287
